Assay results collected from several papers.
Each line is one published result; not all experiments were run side by side.
Target: Serine/threonine-protein kinase 32C (STK32C, Homo sapiens, UniProt Q86UX6)

NC(=O)[C@@H](O)C[C@H]1CCc2sc3ncnc(O[C@H]4CC[C@H](N5CCOCC5)CC4)c3c21
inhibition (enzyme activity, inhibitor; 10 µM): -12%

CNC(=O)C1CCN(c2cc(C)c(F)cc2NC(=O)c2ccc(-c3cc(O)ccc3C)c(C)c2)CC1
remaining binding (binding, competition with immobilised ligand; 1 µM): 70%

COc1c(Cl)cccc1Nc1c(-c2ccncc2C#C[C@@]2(C)CCCN2C(=O)/C=C/CN(C)C)[nH]c2c1C(=O)NCC2
remaining binding (binding, competition with immobilised ligand; 3 µM): 67%

C=CC(=O)Nc1cc(-c2nn(C3CCN(CCNC(=O)[C@H](C)CCC45CC6CC(CC(C6)C4)C5)CC3)c3ncnc(N)c23)ccc1Oc1ccccc1
inhibition (inhibitor, KiNativ profiling; biochemical; 2 µM): 10.4%

CCN1CCN(Cc2ccc(C(=O)Nc3ccc(C)c(NCc4cnc5[nH]ccc5c4OC)c3)cc2C(F)(F)F)CC1
remaining binding (binding, competition with immobilised ligand; 1 µM): 89%

Cc1ccc(-c2c(/C=C(\C#N)C(=O)NC(C)C)n(CCCO)c3ncnc(N)c23)cc1
remaining binding (cell-free assay, competition with immobilised ligand; 1 µM): 100%

CNC(=O)C[C@H](Cc1ccc(C#N)cc1)NC(=O)c1cc(-c2ccc(CN[C@H](C)c3ccc(C)cc3)o2)ccc1Cl
activity vs control (enzyme activity, inhibitor; 1 µM): 101%

CCN1CCN(Cc2ccc(NC(=O)c3ccc(C)c(NC(=O)c4cncc(-c5cnn(C)c5)c4)c3)cc2C(F)(F)F)CC1
remaining binding (binding, competition with immobilised ligand; 1 µM): 90%

CC(=O)N1c2ccc(-c3ccc(CNC(=O)c4cn5cc(-c6cnc(N)nc6)nc(N6CCOCC6)c5n4)cc3)cc2CC[C@@H]1C
remaining binding (binding, competition with immobilised ligand; 10 µM): 75%

CNC1C[S+]2CC[S+]3CC[S+](C1)[Ru-4]321([N]=C=S)[n]2c3ccc(OC)cc3c3c4c(c5cc(F)c[n+]1c5c32)C(=O)NC4=O (centres unmarked)
remaining binding (KinomeScan; 0.1 µM; relative to: untreated): 100%

C=CC(=O)N1CCCC(n2c(=O)c3ncccc3n(Cc3ccc(Oc4ccccc4)cc3)c2=O)C1 (centres unmarked)
remaining binding (cell-free assay, competition with immobilised ligand; 1 µM): 94%

CN1CCN(Cc2ccc(NC(=O)c3cccc(C#Cc4cnc(N)c5ncccc45)c3)cc2C(F)(F)F)CC1
remaining binding (cell-free assay, competition with immobilised ligand; 50 nM): 67%

COc1cc(Nc2nc(C)cc(-c3cnn4nc(OC)ccc34)n2)cc(C(F)(F)F)c1
remaining binding (binding, competition with immobilised ligand; 1 µM): 87%

CNS(=O)(=O)Nc1nccc(Cc2c(C)c3ccc(Oc4ncccc4F)cc3oc2=O)c1F
remaining binding (binding, competition with immobilised ligand; 10 µM): 95%

Excerpt of the above:
CC(=O)N1c2ccc(-c3ccc(CNC(=O)c4cn5cc(-c6cnc(N)nc6)nc(N6CCOCC6)c5n4)cc3)cc2CC[C@@H]1C
remaining binding (binding, competition with immobilised ligand; 10 µM): 75%

CNC1C[S+]2CC[S+]3CC[S+](C1)[Ru-4]321([N]=C=S)[n]2c3ccc(OC)cc3c3c4c(c5cc(F)c[n+]1c5c32)C(=O)NC4=O (centres unmarked)
remaining binding (KinomeScan; 0.1 µM; relative to: untreated): 100%
